Experimental data of several laboratories.
A part holds a random share of what one study measured.
Sequence of UniProt P11388 (whole entry, looked up): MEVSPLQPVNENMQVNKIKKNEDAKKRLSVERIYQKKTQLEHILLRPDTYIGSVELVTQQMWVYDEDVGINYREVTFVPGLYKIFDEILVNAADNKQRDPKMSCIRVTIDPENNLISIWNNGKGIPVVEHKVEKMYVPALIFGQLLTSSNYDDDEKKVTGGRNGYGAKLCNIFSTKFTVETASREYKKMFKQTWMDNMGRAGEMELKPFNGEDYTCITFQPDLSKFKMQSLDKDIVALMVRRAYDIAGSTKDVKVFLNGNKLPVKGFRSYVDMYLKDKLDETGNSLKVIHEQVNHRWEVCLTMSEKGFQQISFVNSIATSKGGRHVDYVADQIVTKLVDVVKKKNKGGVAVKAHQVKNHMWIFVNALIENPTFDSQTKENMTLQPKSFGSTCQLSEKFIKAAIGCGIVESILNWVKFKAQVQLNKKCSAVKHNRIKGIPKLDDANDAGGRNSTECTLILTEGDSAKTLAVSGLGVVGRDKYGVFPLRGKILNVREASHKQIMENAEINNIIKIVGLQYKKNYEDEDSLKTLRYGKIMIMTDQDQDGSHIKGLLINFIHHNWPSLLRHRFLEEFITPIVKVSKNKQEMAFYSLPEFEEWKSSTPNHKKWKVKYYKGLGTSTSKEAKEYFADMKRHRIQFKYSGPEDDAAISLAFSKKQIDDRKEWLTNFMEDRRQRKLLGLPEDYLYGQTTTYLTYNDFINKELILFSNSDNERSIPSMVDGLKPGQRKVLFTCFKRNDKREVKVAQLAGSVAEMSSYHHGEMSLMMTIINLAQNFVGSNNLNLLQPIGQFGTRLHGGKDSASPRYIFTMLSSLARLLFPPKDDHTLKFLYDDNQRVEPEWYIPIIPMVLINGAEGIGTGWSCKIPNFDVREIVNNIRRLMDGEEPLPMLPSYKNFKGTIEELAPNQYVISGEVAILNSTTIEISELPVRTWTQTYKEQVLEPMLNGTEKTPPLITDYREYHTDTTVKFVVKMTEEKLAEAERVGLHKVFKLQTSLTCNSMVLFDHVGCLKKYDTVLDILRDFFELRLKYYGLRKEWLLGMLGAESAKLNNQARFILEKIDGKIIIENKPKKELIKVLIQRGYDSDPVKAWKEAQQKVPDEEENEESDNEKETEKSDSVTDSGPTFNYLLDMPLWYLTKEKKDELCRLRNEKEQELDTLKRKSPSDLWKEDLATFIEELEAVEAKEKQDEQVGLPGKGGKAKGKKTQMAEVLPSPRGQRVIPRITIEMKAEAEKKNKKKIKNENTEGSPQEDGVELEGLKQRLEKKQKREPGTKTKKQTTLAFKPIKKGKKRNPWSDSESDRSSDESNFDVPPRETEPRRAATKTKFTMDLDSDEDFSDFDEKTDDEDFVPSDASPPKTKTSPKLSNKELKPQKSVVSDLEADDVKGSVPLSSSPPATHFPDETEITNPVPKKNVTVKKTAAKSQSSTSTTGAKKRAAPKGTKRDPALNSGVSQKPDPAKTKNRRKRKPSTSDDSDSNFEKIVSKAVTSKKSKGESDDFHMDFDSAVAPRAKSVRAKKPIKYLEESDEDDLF

Set 1
Target: Replicase polyprotein 1ab, nsp14 (rep, Severe acute respiratory syndrome coronavirus 2, UniProt P0DTD1)
Action: inhibitor
| SMILES | IC50 |
| --- | --- |
| COc1ccccc1CNC(=O)c1cc(S(=O)(=O)N2CCC(C)CC2)c(C)n1C | 310 nM |
| COc1ccccc1CNC(=O)c1cc(S(=O)(=O)N2Cc3ccccc3C2)c(C)n1C | 16 nM |
| COc1ccccc1CNC(=O)c1cc(S(=O)(=O)N2CCCCC2)c(C)n1C | 1500 nM |
| COc1ccccc1CNC(=O)c1cc(S(=O)(=O)N2CCCc3ccccc32)c(C)n1C | > 6250 nM |
| Cn1nc(S(=O)(=O)N2CCn3nccc3C2)cc1C(=O)NCc1cccnc1N1CCCC1 | > 6250 nM |
| COc1ccccc1CN(C)C(=O)c1cc(S(=O)(=O)N2CCC(C)CC2)c(C)n1C | > 6250 nM |
| Cc1c(S(=O)(=O)N2CCC(C)CC2)cc(C(=O)NCc2cccnc2N2CCCC2=O)n1C | 750 nM |

Further values, each from its own experiment
| Substance | tested on | test | system | conditions | scale | measurement | value |
| --- | --- | --- | --- | --- | --- | --- | --- |
| COC(=O)Nc1c(N)nc(-c2nn(Cc3ccccc3F)c3ncc(F)cc23)nc1N |  |  | healthy white men | dose not given, day 13, 312 h, LS mean difference, added: sildenafil 25 mg | relative to: placebo | seated DBP maximum decrease | -1.63 mmHg |
| GluA2/TARP γ-8 (x) | Gria1 (Rattus norvegicus, UniProt P19490-2) | patch clamp | HEK293T | added: philanthotoxin | relative to: glutamate current, higher = greater efficacy | kainate efficacy | 30.7% |
| COC(=O)Nc1c(N)nc(-c2nn(Cc3ccccc3F)c3ncc(F)cc23)nc1N |  |  | healthy male humans, plasma | 10 mg once daily, day 6 vs day 5, fed, multiple dose, added: warfarin 25 mg single dose | relative to: with over without warfarin | AUC(tau) ratio | 1.03 |
| CC1COc2ccccc2N1C(=O)C(Cl)Cl (centres unmarked) | carboxylesterase | substrate depletion | rhesus monkey, male, liver microsomes | 5 µM, pH 7.4, without NADPH |  | intrinsic clearance | 900 µL/min/mg |
| Fc1ccccc1Cc1nc(-c2nc(C(F)(F)F)n[nH]2)cn2ccnc12 |  | refers to: Dizziness | healthy humans | oral, 10 mg, fed, single dose |  | subjects with adverse events | 7.7% |
| COc1cc([C@@H]2c3cc4c(cc3[C@@H](O[C@@H]3O[C@@H]5CO[C@@H](C)O[C@H]5[C@H](O)[C@H]3O)[C@H]3COC(=O)[C@H]23)OCO4)cc(OC)c1O | DNA topoisomerase 2-alpha (TOP2A, Homo sapiens, UniProt P11388) | DNA decatenation, inhibitor, gel-based decatenation |  | 7.8 µM |  | inhibition | 91.2% |
| N#CCC1CCN(c2nc(Nc3ccc(N4CCC(O)CC4)cc3)c3c(=O)[nH]ncc3n2)CC1 |  | vs placebo, Olink multiplex | human, serum | 80 mg, day 15, unit not given | relative to: placebo | IL-18 level difference | -1.42 |

Repeated from above (further values, each from its own experiment):
| Substance | tested on | test | system | conditions | scale | measurement | value |
| --- | --- | --- | --- | --- | --- | --- | --- |
| GluA2/TARP γ-8 (x) | Gria1 (Rattus norvegicus, UniProt P19490-2) | patch clamp | HEK293T | added: philanthotoxin | relative to: glutamate current, higher = greater efficacy | kainate efficacy | 30.7% |
| COC(=O)Nc1c(N)nc(-c2nn(Cc3ccccc3F)c3ncc(F)cc23)nc1N |  |  | healthy male humans, plasma | 10 mg once daily, day 6 vs day 5, fed, multiple dose, added: warfarin 25 mg single dose | relative to: with over without warfarin | AUC(tau) ratio | 1.03 |
